Literature values that unrelated publications cite.
Protocols differ between the studies behind these lines. ± gives the spread as reported.

The IC50 of COCCN(C)c1ccc(C(=O)Nc2ccccc2)cc1NS(=O)(=O)Cc1ccccc1 is reported as 0.571 µM (Plasmodium falciparum; 3D7; 72 h, whole cell).
Cc1ccc(C(=O)Nc2ccc(S(=O)(=O)O)c3cc(S(=O)(=O)O)cc(S(=O)(=O)O)c23)cc1NC(=O)c1cccc(NC(=O)Nc2cccc(C(=O)Nc3cc(C(=O)Nc4ccc(S(=O)(=O)O)c5cc(S(=O)(=O)O)cc(S(=O)(=O)O)c45)ccc3C)c2)c1 has an IC50 of 0.038 ± 0.014 µM (Trypanosoma equiperdum; cell growth; IVM-t1).
C=CCCCCC(=O)N(C)[C@H](C(=O)N(C)[C@H](C(=O)N(C)[C@H](C(=O)N(C)[C@@H](C)C(=O)N(C)[C@@H](Cc1ccccc1)C(=O)O)C(C)C)C(C)C)C(C)C has an IC50 of > 14 µM (Leishmania donovani).
c1cc(CN2CCCNCCNCCCNCC2)ccc1CN1CCCNCCNCCCNCC1 has an IC50 of 0.01 µM (HIV; viral replication).
For N=C(N)c1ccc(OCCCCCOc2ccc(C(=N)N)cc2)cc1, the IC50 was 0.029 ± 0.0062 µM (Trypanosoma brucei rhodesiense; cell growth; IL1501).
The IC50 of c1ccc(CNc2nc(Nc3ccccc3)nc3ccccc23)cc1 is reported as 3.1 µM (Trypanosoma brucei rhodesiense; STIB 900).
With N=C(N)c1ccc(N=NNc2ccc(C(=N)N)cc2)cc1 the IC50 was 0.109 ± 0.026 µM (Trypanosoma congolense; IL3000).
The IC50 of O=C(NC(c1ccccc1)c1ccc2cccnc2c1O)c1ccccc1 (stereo not shown) is reported as < 0.13 µM (Trypanosoma cruzi; parasite growth, reporter gene; MRC-5 host cells; 7 days).
With c1ccc(-c2ccc(-c3nc4ccccc4[nH]3)cc2)cc1 the IC50 was > 32 µM (Trypanosoma brucei brucei; Squib 427).
For COc1ccc(-c2oc3cc(O)c(OC)c(O)c3c(=O)c2OC)cc1, the IC50 was > 30 µM (Trypanosoma cruzi; epimastigotes and trypomastigotes).
For C=CCCCC[C@@H](C)C(=O)N(C)[C@H](C(=O)N(C)[C@H](C(=O)N[C@H](C(=O)N(C)[C@@H](C)C(=O)N(C)[C@@H](Cc1ccccc1)C(N)=O)C(C)C)C(C)C)C(C)C, the IC50 was 1.9 µM (Leishmania donovani).
CC(=O)c1ccc(NC(=O)CSc2nc(-c3ccccc3Cl)ns2)cc1 has an IC50 of > 32 µM (Trypanosoma brucei rhodesiense; STIB 900).
NCCCC(N)(C(=O)O)C(F)F (stereo not shown) gave an IC50 of 57.2 ± 17.6 µM (Trypanosoma evansi; cell growth; Tansui).
COCCNC(=O)c1ccc(OC2CCN(Cc3ccc(F)c(F)c3)CC2)c(Cl)c1 has an IC50 of > 32 µM (Trypanosoma brucei brucei; Squib 427).
CO[C@@H]1[C@H](OC(=O)/C=C/C=C/C=C/C=C/C(=O)O)CC[C@]2(CO2)[C@H]1[C@@]1(C)O[C@@H]1CC=C(C)C has an IC50 of 0.002 to 0.01 µM (Giardia duodenalis; growth).
For CCOc1cccc(C(=O)Nc2ccc(-c3nc4ccccc4[nH]3)cc2)c1, the IC50 was > 32 µM (Trypanosoma brucei rhodesiense; STIB 900).
The IC50 of Cn1c(C(=O)NCCCc2c[nH]c(N)n2)cc(Br)c1Br is reported as 111 µM (Pseudomonas aeruginosa; biofilm formation; PA14; 50% inhibition).
For CCOc1ccc(/C=C/c2nc(=O)c3ccccc3o2)cc1, the IC50 was > 32 µM (Trypanosoma brucei brucei; Squib 427).
C[C@H]1c2cccc(O)c2C(=O)C2=C(O)[C@]3(O)C(=O)C(C(N)=O)=C(O)[C@@H](N(C)C)[C@@H]3[C@@H](O)[C@@H]21 gave an IC50 of 0.016 µM (Wolbachia; Wolbachia load, high-content imaging; C6/36, wAlbB).

A few entries again:
For CCOc1cccc(C(=O)Nc2ccc(-c3nc4ccccc4[nH]3)cc2)c1, the IC50 was > 32 µM (Trypanosoma brucei rhodesiense; STIB 900).
The IC50 of c1ccc(CNc2nc(Nc3ccccc3)nc3ccccc23)cc1 is reported as 3.1 µM (Trypanosoma brucei rhodesiense; STIB 900).
For CCOc1ccc(/C=C/c2nc(=O)c3ccccc3o2)cc1, the IC50 was > 32 µM (Trypanosoma brucei brucei; Squib 427).
